Measurements of several laboratories.
Protocols differ between the studies behind these lines. ± gives the spread as reported.
hdac10: Polyamine deacetylase HDAC10 (hdac10, Danio rerio, UniProt F1QCV2)
UniProt F1QCV2, sequence (whole entry, looked up): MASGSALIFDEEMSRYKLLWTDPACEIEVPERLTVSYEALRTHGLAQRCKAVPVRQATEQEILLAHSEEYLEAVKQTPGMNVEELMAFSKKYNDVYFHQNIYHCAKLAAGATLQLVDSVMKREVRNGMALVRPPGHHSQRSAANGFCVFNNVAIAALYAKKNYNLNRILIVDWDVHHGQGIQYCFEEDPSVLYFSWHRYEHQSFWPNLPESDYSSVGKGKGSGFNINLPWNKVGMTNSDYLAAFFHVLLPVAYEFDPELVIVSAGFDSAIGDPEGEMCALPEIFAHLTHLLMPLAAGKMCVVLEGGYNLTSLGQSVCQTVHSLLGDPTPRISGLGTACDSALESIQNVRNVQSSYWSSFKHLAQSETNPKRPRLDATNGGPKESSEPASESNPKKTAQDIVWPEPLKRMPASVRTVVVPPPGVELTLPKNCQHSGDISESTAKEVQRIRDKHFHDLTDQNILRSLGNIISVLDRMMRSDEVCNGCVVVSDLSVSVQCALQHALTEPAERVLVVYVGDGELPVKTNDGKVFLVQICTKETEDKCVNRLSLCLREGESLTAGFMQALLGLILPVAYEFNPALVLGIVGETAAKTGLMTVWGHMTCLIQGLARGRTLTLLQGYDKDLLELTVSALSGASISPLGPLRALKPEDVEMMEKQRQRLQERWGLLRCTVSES
AKR1C2: Aldo-keto reductase family 1 member C2 (AKR1C2, Homo sapiens, UniProt P52895)
UniProt P52895, sequence (whole entry, looked up): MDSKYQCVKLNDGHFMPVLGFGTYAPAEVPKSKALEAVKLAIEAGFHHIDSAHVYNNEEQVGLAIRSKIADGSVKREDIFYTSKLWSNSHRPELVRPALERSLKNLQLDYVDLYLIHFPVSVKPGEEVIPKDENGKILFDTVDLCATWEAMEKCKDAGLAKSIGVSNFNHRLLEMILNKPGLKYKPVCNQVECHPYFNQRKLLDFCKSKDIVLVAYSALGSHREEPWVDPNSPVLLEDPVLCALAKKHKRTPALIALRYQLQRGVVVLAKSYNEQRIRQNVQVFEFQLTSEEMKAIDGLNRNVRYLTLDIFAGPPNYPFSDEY
PNLIP: Pancreatic triacylglycerol lipase (PNLIP, Sus scrofa, UniProt P00591)
UniProt P00591, sequence (whole entry, looked up): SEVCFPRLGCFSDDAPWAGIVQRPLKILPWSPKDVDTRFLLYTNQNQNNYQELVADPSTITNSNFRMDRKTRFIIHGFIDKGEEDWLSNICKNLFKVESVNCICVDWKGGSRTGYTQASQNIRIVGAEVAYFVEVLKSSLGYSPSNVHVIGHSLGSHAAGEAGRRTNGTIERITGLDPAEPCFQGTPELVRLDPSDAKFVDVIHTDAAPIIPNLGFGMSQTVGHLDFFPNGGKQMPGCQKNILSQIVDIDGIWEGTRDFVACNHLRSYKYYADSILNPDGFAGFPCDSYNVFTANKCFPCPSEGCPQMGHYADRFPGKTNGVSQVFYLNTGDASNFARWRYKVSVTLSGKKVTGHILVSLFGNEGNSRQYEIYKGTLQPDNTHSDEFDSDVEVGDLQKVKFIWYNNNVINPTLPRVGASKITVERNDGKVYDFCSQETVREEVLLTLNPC
ELANE: Neutrophil elastase (ELANE, Homo sapiens, UniProt P08246)
UniProt P08246, sequence (whole entry, looked up): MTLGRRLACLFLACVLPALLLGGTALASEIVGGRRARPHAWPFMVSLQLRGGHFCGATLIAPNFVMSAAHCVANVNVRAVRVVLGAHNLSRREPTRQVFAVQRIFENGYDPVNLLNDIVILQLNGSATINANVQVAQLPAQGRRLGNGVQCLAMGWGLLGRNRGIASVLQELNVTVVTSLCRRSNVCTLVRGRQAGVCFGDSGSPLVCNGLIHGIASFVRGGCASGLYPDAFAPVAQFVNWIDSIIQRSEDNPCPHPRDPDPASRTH
Sigmar1: Sigma non-opioid intracellular receptor 1 (Sigmar1, Rattus norvegicus, UniProt Q9R0C9)
UniProt Q9R0C9, sequence (whole entry, looked up): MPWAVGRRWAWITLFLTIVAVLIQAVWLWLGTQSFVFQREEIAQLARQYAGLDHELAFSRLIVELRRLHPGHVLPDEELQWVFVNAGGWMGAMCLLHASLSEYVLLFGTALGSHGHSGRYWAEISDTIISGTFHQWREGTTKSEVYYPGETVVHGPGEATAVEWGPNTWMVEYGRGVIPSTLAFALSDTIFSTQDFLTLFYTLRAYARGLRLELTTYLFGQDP
AMY2: Pancreatic alpha-amylase (AMY2, Sus scrofa, UniProt P00690)
UniProt P00690, sequence (whole entry, looked up): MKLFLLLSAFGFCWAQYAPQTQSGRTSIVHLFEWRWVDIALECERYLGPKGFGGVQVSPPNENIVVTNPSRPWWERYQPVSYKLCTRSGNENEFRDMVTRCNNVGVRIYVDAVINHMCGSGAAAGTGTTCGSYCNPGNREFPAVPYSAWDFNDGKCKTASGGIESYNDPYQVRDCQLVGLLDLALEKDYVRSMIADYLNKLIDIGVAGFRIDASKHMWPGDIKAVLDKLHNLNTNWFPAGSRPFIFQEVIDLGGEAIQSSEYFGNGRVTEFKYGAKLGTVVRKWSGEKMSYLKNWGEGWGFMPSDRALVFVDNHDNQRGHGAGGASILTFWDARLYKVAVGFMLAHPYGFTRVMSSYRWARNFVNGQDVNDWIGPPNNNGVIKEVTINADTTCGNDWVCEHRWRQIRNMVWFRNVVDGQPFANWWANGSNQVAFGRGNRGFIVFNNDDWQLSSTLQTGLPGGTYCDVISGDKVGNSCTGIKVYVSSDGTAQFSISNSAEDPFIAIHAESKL
Ectonucleoside triphosphate diphosphohydrolase 8: Ectonucleoside triphosphate diphosphohydrolase 8 (Homo sapiens, UniProt Q5MY95)
UniProt Q5MY95, sequence (whole entry, looked up): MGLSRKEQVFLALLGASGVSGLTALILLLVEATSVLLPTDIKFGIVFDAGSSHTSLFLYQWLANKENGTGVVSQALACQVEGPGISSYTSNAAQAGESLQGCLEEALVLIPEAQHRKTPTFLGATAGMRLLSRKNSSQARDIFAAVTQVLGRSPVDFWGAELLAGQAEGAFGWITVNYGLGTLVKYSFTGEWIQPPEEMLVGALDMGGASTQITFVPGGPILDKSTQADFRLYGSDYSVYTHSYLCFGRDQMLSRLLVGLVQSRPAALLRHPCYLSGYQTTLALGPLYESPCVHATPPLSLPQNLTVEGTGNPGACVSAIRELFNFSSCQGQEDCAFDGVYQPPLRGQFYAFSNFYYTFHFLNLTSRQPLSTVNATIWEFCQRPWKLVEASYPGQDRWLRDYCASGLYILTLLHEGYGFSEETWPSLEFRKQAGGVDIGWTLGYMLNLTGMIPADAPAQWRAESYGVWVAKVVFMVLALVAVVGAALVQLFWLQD
PDK1: [Pyruvate dehydrogenase (acetyl-transferring)] kinase isozyme 1, mitochondrial (PDK1, Homo sapiens, UniProt Q15118)
UniProt Q15118, sequence (whole entry, looked up): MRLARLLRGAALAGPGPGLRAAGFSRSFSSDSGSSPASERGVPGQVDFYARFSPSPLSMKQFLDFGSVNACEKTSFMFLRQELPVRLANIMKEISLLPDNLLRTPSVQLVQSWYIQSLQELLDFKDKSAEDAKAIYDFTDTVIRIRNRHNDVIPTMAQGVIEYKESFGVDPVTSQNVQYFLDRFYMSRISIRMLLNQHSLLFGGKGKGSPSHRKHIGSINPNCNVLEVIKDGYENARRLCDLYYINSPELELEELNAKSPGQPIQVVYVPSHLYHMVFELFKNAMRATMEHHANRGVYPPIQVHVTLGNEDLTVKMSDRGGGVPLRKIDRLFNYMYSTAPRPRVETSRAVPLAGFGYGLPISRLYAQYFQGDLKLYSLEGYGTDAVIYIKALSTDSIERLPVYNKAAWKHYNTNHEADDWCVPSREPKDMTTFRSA
CDK4 with cyclin D3: Cyclin-dependent kinase 4, with cyclin D3 (CDK4, Homo sapiens, UniProt P11802)
UniProt P11802, sequence (whole entry, looked up): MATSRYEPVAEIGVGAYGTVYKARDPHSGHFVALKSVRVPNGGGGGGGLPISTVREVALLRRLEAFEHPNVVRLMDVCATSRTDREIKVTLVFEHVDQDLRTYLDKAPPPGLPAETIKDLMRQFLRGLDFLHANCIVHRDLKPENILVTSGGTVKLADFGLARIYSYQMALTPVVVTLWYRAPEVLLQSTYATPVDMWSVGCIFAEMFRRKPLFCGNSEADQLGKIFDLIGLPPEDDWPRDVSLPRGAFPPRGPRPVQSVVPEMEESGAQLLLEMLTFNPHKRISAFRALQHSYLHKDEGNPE
UniProt Q9NZQ7, sequence (whole entry, looked up): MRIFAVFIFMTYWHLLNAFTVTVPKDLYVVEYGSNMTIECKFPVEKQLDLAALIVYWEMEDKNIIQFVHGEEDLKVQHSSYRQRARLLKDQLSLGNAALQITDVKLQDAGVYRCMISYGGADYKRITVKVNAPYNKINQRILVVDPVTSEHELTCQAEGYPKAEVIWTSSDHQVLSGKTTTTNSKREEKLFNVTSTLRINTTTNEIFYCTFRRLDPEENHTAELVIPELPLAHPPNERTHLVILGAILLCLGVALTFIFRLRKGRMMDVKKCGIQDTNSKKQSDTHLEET
UniProt P54753, sequence (whole entry, looked up): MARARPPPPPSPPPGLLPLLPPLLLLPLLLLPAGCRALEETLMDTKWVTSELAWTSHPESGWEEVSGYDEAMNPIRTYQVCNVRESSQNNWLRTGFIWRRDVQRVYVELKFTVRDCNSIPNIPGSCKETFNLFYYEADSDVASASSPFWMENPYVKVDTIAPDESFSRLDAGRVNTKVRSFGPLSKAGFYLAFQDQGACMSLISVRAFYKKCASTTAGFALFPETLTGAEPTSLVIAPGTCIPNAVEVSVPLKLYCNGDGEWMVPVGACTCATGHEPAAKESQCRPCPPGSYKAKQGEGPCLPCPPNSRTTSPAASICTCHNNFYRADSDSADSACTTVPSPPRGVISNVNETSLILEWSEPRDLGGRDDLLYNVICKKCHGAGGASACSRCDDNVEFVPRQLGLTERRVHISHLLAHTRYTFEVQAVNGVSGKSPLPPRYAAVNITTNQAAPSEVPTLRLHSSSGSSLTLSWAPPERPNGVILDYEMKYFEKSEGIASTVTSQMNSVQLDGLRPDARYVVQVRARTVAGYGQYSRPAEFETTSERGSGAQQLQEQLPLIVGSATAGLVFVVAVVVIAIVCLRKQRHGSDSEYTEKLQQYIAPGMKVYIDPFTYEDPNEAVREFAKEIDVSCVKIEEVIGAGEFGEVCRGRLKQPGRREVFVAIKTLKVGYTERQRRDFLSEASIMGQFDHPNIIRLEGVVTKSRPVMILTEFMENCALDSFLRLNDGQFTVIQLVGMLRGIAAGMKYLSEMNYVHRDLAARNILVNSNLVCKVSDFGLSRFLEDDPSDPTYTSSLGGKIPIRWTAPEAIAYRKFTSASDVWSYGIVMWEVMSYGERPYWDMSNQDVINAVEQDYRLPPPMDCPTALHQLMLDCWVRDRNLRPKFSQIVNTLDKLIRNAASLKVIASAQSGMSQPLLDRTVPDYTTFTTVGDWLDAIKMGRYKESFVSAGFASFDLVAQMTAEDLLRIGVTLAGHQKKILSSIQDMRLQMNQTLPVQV

SMILES	target	test	system	setting	inhibition
FC(F)(F)c1ccc(NC(=S)Nc2ccc3[nH]cnc3c2)cc1	Beta-glucuronidase (uidA, Escherichia coli, UniProt P05804)	enzyme activity, inhibitor, absorbance		100 µM	94.3%
O=C(/C=C/c1ccc(Cl)cc1Cl)NO	hdac10			0.1 µM	53%
C[C@@]12CC[C@@H]3c4cc(I)c(O)c(I)c4CC[C@H]3[C@@H]1CCC2=O	AKR1C2	enzyme activity, inhibitor, absorbance		100 µM, pH 9	45%
Cn1nc(-c2cccc(O)c2)c2c(N)ncnc21	PTK6 (Homo sapiens, UniProt Q13882)	enzyme activity, inhibitor, ADP detection		0.2 µM	91%
Oc1ccc([C@H]2Oc3cc(O)cc(O)c3C[C@H]2O)cc1	PNLIP	enzyme activity, inhibitor		10 µM	44.9%
CC(C)(O)C1=CCC(C2CC[C@]3(C)C2CCC2[C@@]4(C)CCC(O)C(C)(C)C4CC[C@]23C)C1=O (some centres unmarked)	α-glucosidase (yeast)			50 µM, together with: PNPG substrate	26.7 ± 4.13%
C[C@@H](O)[C@H](NC(=O)CP(=O)(O)OC[C@H]1O[C@@H](n2cnc3c(N)ncnc32)[C@H](O)[C@@H]1O)C(=O)O	Threonylcarbamoyl-AMP synthase (tsaC, Escherichia coli, UniProt P45748)	TC-AMP formation, inhibitor		concentration not given	no inhibition
Cc1nc2ccccc2n1S(=O)(=O)c1ccc2c(c1)C(=O)CC2=O	ELANE	enzyme activity, inhibitor, fluorescence		0.1 µM	24.1%
C[C@@]12CC[C@@H]3c4cc(I)c(O)cc4CC[C@H]3[C@@H]1CCC2=O	AKR1C2	enzyme activity, inhibitor, absorbance		10 µM, pH 9	22.4%
COc1ccc(Cn2ccc3ccc(C(=O)NO)cc32)cc1	hdac10			1 µM	17%
C[C@]12CC[C@@H]3c4cc(Br)c(O)c(Br)c4CC[C@H]3[C@@H]1CCC2=O	AKR1C2	enzyme activity, inhibitor, absorbance		100 µM, pH 9	99.8%
C/C(=N\OCCCN1CCCC1)c1ccc(C(F)(F)F)cc1	Sigmar1	radioligand binding		1 µM	54.7%
CC(=O)OCCc1ccc(O)c(O)c1	AMY2	enzyme activity, inhibitor		500 µM	< 10%
C/C(=N\OCCCCN(C)Cc1ccccc1)c1ccc(C(F)(F)F)cc1	Sigmar1	radioligand binding		10 µM	76.6%
O=C(NCc1ccc(F)cc1)c1nc(NCCO)c2cccnc2c1O	Tripartite terminase subunit 3, C-terminal nuclease domain (Human betaherpesvirus 5, UniProt P16732)	endonuclease activity, ELISA		10 µM	53 ± 6.5%
O=C(/C=C/c1ccc2c(c1)sc1ccccc12)NO	hdac10			1 µM	54%
CC[C@H](C)[C@H](NC(=O)[C@H](CCCNC(=N)N)NC(=O)[C@H](CCCCN)NC(=O)[C@@H]1CCCN1C(=O)[C@H](CO)n1cc(CN(CC[C@H](N)C(=O)O)C[C@H]2O[C@@H](n3cnc4c(N)ncnc43)[C@H](O)[C@@H]2O)nn1)C(=O)N[C@@H](C)C(N)=O	EHMT2 (Homo sapiens, UniProt Q96KQ7)	enzyme activity, inhibitor, fluorescence		50 µM	< 50%
OCc1c(Cl)ccc(Oc2ccc(Cl)cc2Cl)c1O	ENR (Toxoplasma gondii, UniProt Q6UCJ9)	enzyme activity, inhibitor		1 µM	92%
O=C(NCc1ccccc1)c1cc(S(=O)(=O)NCc2ccccc2)ccc1Cl	Ectonucleoside triphosphate diphosphohydrolase 8	enzyme activity, inhibitor, absorbance		100 µM	3%
COc1ccc(Br)c(/C=C/C(=O)NO)c1	hdac10			1 µM	39%
CCCCc1nc(Cl)c(C(=O)O)n1Cc1ccc(-c2ccccc2-c2nnn[nH]2)cc1	HMGCR (Homo sapiens, UniProt P04035)	enzyme activity, inhibitor, spectrophotometric counter-screen		up to 100 µM	no inhibition
O=C(NO)C1=CCCC1	hdac10			1 µM	93%
FC(F)(F)C(=NOCCN1CCCC1)c1ccc(C(F)(F)F)cc1 (mixture of isomers)	Sigmar1	radioligand binding		10 µM	67.4%
O=C(c1ccc(Oc2cccc3ccccc23)c([N+](=O)[O-])c1)C(Cl)Cl	PDK1	enzyme activity, inhibitor, ATP luminescence		10 µM	26.5 to 30.1%
C/C(=N\OCCCCN1CCCCC1)c1ccc(C(F)(F)F)cc1	Sigmar1	radioligand binding		10 µM	91.6%
O=C(O)c1cc(S(=O)(=O)N2CCOCC2)ccc1Cl	Ectonucleoside triphosphate diphosphohydrolase 3 (Homo sapiens, UniProt O75355)	enzyme activity, inhibitor, absorbance		100 µM	46%
CC(C)Cn1cc(-c2ccnc(Nc3ccc(N4CCN(CCCCCCC(=O)NO)CC4)cc3)n2)nn1	CDK4 with cyclin D3	enzyme activity, inhibitor, TR-FRET		5 µM	88.7%

SMILES	target	test	system	setting	inhibition
C[C@@]12CC[C@@H]3c4ccc(O)c(Br)c4CC[C@H]3[C@@H]1CCC2=O	AKR1C2	enzyme activity, inhibitor, absorbance		100 µM, pH 9	98.3%
COc1cc(C(=O)NC2CCC(N3CCN(CC4CCC5(CCCC5)C4)CC3)CC2)c(F)cc1Nc1ncc2c(n1)N(C1CCCC1(F)F)CC(F)(F)C(=O)N2C (centres unmarked)	EPHB3 (Homo sapiens, UniProt P54753)	cell-free assay, TR-FRET		10 µM	0.53%
Clc1ccc(-c2cs/c(=N/N=C/c3ccc(N4CCOCC4)cc3)n2-c2ccccc2)cc1	CA2 (Bos taurus, UniProt P00921)	enzyme activity, inhibitor, absorbance		500 µM	80.5%
Clc1nc(-c2ccccc2)nc2scc(-c3ccccc3)c12	Programmed cell death 1 ligand 1, with PD-1 (CD274, Homo sapiens, UniProt Q9NZQ7)	PD-1/PD-L1 binding, inhibitor, TR-FRET		25 µM	≥ 20%
Cc1cccc(/C=C/C(=O)c2cnn(-c3ccccc3)c2C)c1	AMY2	enzyme activity, inhibitor, absorbance		500 µM	45.4%
O=C(c1ccc(Oc2ccc(Cl)cc2)c([N+](=O)[O-])c1)C(Cl)Cl	PDK1	enzyme activity, inhibitor, ATP luminescence		2 µM	53.1%
Clc1ccc(NN=C(c2ccccc2)c2ccccn2)nc1	KDM4A (Homo sapiens, UniProt O75164)	demethylase activity, inhibitor, 1H NMR		160 µM, together with: H3K9me3 peptide	inhibited
CC(C)Cn1cc(-c2ccnc(Nc3ccc(C(=O)Nc4ccccc4N)cc3)n2)nn1	CDK4 with cyclin D3	enzyme activity, inhibitor, TR-FRET		5 µM	3.4%
O=C(NO)c1coc(-c2ccccc2)n1	hdac10			0.1 µM	< 10%
C[C@@]12CC[C@@H]3c4ccc(O)c(I)c4CC[C@H]3[C@@H]1CCC2=O	AKR1C2	enzyme activity, inhibitor, absorbance		100 µM	75%
COc1cccc(COc2ccccc2/C=C/C(=O)NO)c1	hdac10			0.1 µM	18%
O=C(/C=C/c1ccc2c(c1)OCCO2)c1ccco1	MAOB (Homo sapiens, UniProt P27338)	enzyme activity, inhibitor, fluorescence		1 µM	32.5%
Cc1ccc(N2CCN(C(=O)c3noc(-c4ccc(F)cc4)n3)CC2)cc1	SCN9A (Homo sapiens, UniProt Q15858)	sodium current, whole-cell patch clamp	HEK293, stable	20 µM	3 ± 7%
O=C(O[C@@H]1Cc2c(O)cc(O)cc2O[C@@H]1c1ccc(O)c(O)c1)c1cc(O)c(O)c(O)c1	PNLIP	enzyme activity, inhibitor		10 µM	91.8%
CCCCNC(=O)c1cccc(S(=O)(=O)NC2CC2)c1	Ectonucleoside triphosphate diphosphohydrolase 8	enzyme activity, inhibitor, absorbance		100 µM	46%
O=C(Nc1ccccc1)c1ccccc1O	1-deoxy-D-xylulose 5-phosphate reductoisomerase (Escherichia coli K-12, UniProt P45568)	enzyme activity, inhibitor, absorbance		100 µM	100%
CCOC(=O)c1c(NC(=O)CCl)sc2c1CCC(c1ccccc1)C2 (centres unmarked)	PDK1	enzyme activity, inhibitor, ATP luminescence		100 µg/mL	38%
C#CCSc1nc(Sc2nnnn2-c2ccccc2)c2nnn(Cc3ccccc3Cl)c2n1	CDK4 with cyclin D3	enzyme activity, inhibitor		10 µM	< 15%
CN(CCON=C(c1ccccc1)c1ccc(C(F)(F)F)cc1)Cc1ccccc1 (mixture of isomers)	Sigmar1	radioligand binding		1 µM	67.4%
CC(C)=CC1CC(C)(O)C2C3CCC4C5(C)CCC(OC6OCC(O)C(OC7OC(CO)C(O)C(O)C7O)C6OC6OC(C)C(O)C(O)C6O)C(C)(C)C5CCC4(C)C34COC2(C4)O1 (centres unmarked)	PNLIP	enzyme activity, inhibitor, absorbance		250 µM	75%
CC(C)Cn1cc(-c2nc(Nc3ccc(OCCCCCCC(=O)NO)cc3)ncc2F)nn1	CDK4 with cyclin D3	enzyme activity, inhibitor, TR-FRET		5 µM	62.6%
O=C(NO)c1ccc(Cl)c(NC(=O)c2cccc(OCc3ccccc3)c2)c1	hdac10			1 µM	20%
C[C@@]12CC[C@@H]3c4cc(Cl)c(O)cc4CC[C@H]3[C@@H]1CCC2=O	AKR1C2	enzyme activity, inhibitor, absorbance		100 µM, pH 9	75.4%
COc1cc(OC)c(C(=O)CCc2ccccc2)c(O)c1O	α-glucosidase (Saccharomyces cerevisiae)	inhibitor		10 µg/mL, together with: pNPG	32.9 ± 1.77%
CC(=O)C1CCC2(C)C1C(O)CC1C3(C)CCC(O)C(C)(C)C3CCC12C (centres unmarked)	PTPN1 (Homo sapiens, UniProt P18031)	enzyme activity, inhibitor		400 µM, together with: p-nitrophenyl phosphate	3.8%
CCc1nc2ccccc2n1S(=O)(=O)c1ccc2c(c1)C(=O)CC2=O	ELANE	enzyme activity, inhibitor, fluorescence		100 µM	70.1%

Repeated from above:
SMILES	target	test	system	setting	inhibition
C[C@@H](O)[C@H](NC(=O)CP(=O)(O)OC[C@H]1O[C@@H](n2cnc3c(N)ncnc32)[C@H](O)[C@@H]1O)C(=O)O	Threonylcarbamoyl-AMP synthase (tsaC, Escherichia coli, UniProt P45748)	TC-AMP formation, inhibitor		concentration not given	no inhibition
Cc1nc2ccccc2n1S(=O)(=O)c1ccc2c(c1)C(=O)CC2=O	ELANE	enzyme activity, inhibitor, fluorescence		0.1 µM	24.1%
C[C@@]12CC[C@@H]3c4cc(I)c(O)cc4CC[C@H]3[C@@H]1CCC2=O	AKR1C2	enzyme activity, inhibitor, absorbance		10 µM, pH 9	22.4%
COc1ccc(Cn2ccc3ccc(C(=O)NO)cc32)cc1	hdac10			1 µM	17%
